Measurements of several laboratories.
Numbered parts are unrelated; each lists some results of a single study. Positions count from the first letter of the parent shown.

Study 1
Target: Ras GTPase-activating protein-binding protein 1, full length (G3BP1, Homo sapiens, UniProt Q13283)
Chain of UniProt Q13283 (whole entry, looked up): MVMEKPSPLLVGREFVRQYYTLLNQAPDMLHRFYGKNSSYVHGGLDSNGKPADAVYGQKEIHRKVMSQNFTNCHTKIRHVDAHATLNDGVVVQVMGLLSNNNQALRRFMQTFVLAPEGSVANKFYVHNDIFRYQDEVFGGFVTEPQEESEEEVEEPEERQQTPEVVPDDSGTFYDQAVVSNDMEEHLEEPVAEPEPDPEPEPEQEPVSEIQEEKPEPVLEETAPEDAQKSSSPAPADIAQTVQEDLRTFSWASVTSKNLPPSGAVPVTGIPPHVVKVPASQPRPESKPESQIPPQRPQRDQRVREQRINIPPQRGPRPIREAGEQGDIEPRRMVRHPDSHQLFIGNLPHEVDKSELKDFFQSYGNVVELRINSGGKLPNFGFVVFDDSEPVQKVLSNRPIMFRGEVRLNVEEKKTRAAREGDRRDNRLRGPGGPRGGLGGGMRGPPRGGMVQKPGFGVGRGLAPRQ
Technique: RNA Bind-n-Seq
Form: RNA
Matrix: in vitro
Tested at: 200 nM
Setting: whole 134-nt RNA, ends assumed
Added: 150 mM KCl
Relative to: input library
Reading: higher = stronger binding
Measurement: log2 enrichment
Constant ends, left off below: GGGAGUUCUACAGUCCGACGAUC … UGGAAUUCUCGGGUGUCAAGG
ACCAUGCAGGUGGGCAUCUUUGGGAAGUGGGGCAAGGGGGGGAUAGGGAGGUGGGUAACACUUUGGGAACAGGUGGUCCCAGGUCGUUUC: 1.23
CCUGUGCUACACAUCGUAUGUACCGAAUCGGAAAAAAAGGAAAAAAAGGAAAAAAAGGGGAAAGUAUUAUGUUACGCCGUUCGGAUCUGC: -0.897
CCUCAAGUCCUGUGCUACACAUCGUAUGUACCGAAUCGGCCGGGCCGGCCGGAAAGUAUUAUGUUACGCCGUUCGGAUCUGCACUUCCAG: -0.265
CACAGACAAAACGCACCCACACAGACACAGAGGGAAGGGGUUGGGAUGGGGACAGGGUGCACAGCAGGGCGGGGUAGGACCCCAGCCCCU: 1.84
UCCUCAAGUCCUGUGCUACACAUCGUAUGUACCGAAUCGGAGGUGGAAAGGAAAGUAUUAUGUUACGCCGUUCGGAUCUGCACUUCCAGC: -0.824
UCCUGUGCUACACAUCGUAUGUACCGAAUCGGGGAAAAAAGGGAAAAAAGGGAAAAAAGGAAAGUAUUAUGUUACGCCGUUCGGAUCUGC: -0.0838
UAACUUUAGAGGAGGAUCUGAUGGAUAUGGCAGUGGACGUGGAUUUGGGGAUGGCAAUAAUGGGUAUGGAGGAGGACCUGGAGGUGGCAA: 0.24
CCUCAAGUCCUGUGCUACACAUCGUAUGUACCGAAUCGGGAGGAGGGAGGGGAAAGUAUUAUGUUACGCCGUUCGGAUCUGCACUUCCAG: 1.17
CAAGUCCUGUGCUACACAUCGUAUGUACCGAAUCGGGUUUGGGAAAAAGGGUGGGAAAGUAUUAUGUUACGCCGUUCGGAUCUGCACUUC: 1.02
AGUCCUGUGCUACACAUCGUAUGUACCGAAUCAAACCCAAACCCCCCCAAAUUUAAAAAAGUAUUAUGUUACGCCGUUCGGAUCUGCACU: -0.446
CACAGACAACACGCACCCACACAGACACAGAGGGAAGGGGUUGGGAUGGGGACAGGGUGCACGGCAGGGCGGGGUAGGACCCCAGCCCCU: 1.77
GCAGGAAGUAAAAACAAAUGGAAAUGCUUCGGAUAGAAACAGGGGUGGGGGUUGCUAAGGAAAGGGUGGGAUGGGAGUGGGUAAAGAGUU: 0.935
CACAGACAACACGCACCCAAAAAGACACAGAGGGAAGGGGUUGGGAUGGGGACAGGGUGCACAGCAGGGCGGGGUAGGACCCCAGCCCCU: 1.92
ACCAUGCAGGUGGGCAUCUUUGGGAAGUGGGGCAAGGGGAAAAUAGGGAGGGGGGUAACACUUUGGGAACAGGUGGUCCCAGGUCGUUUC: 0.99

Study 2
Target: ABI1, truncated, D143A, DHFR fusion (Arabidopsis thaliana)
Technique: DHFR PCA, deep sequencing
Matrix: yeast
Setting: methotrexate growth selection, single substitutions
Added: (+)-ABA 17 µM
Relative to: wild-type fitted maximum
Reading: higher = stronger binding
Measurement: relative binding score
Starting sequence: PYL1, truncated, DHFR fusion (Arabidopsis thaliana); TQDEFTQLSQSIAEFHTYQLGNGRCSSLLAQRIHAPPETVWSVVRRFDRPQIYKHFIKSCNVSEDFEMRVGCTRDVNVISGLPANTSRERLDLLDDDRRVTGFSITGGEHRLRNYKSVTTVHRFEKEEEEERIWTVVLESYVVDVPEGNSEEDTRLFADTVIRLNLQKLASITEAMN; partner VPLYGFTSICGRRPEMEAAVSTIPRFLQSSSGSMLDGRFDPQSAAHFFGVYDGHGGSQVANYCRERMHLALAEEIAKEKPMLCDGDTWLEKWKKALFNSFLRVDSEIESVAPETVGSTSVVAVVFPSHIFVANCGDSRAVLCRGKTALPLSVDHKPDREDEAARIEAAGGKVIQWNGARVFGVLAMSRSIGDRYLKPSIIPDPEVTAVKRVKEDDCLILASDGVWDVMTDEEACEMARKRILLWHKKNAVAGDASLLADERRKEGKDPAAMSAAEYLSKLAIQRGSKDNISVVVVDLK
E89L: -2.04%
L138R: 3.82%
G81P: 10.6%
G23C: 46.9%
K58C: 39.5%
R163Q: 76.2%
A35F: 0.851%
F5R: 78.6%
N61L: 82.6%
Q31E: 42.6%
V43M: 66.3%
F56T: 2.11%
K58G: 48.2%
H34G: 73.7%
V143E: 3.06%
V161D: -3.96%

Study 3
Target: CCNB3, cyclin fold, Cln2 fusion (human)
Technique: yeast growth competition, sequencing
Matrix: yeast
Setting: strong parent motif
Relative to: not given
Reading: higher = stronger binding
Measurement: normalised enrichment score
Starting sequence: SCAPER docking peptide (human); SNARRSLNFGGST; partner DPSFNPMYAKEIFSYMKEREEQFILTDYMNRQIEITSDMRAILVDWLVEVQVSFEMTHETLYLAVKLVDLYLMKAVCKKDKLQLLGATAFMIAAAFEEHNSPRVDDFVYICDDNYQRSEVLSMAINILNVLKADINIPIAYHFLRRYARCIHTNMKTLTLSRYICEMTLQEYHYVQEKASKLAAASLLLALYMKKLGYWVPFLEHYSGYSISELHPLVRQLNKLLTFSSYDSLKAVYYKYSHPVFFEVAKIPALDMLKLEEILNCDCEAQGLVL
SNALRSLNFGGST [R4L]: -0.398
SNARRSLGFGGST [N8G]: 0.378
SNARRSLNFGGSS [T13S]: 1.49
PNARRSLNFGGST [S1P]: 1.13
SNARRSLNGGGST [F9G]: -0.00493
SNARRSLNPGGST [F9P]: -0.156
DNARRSLNFGGST [S1D]: 1.29
SNARYSLNFGGST [R5Y]: 0.132
HNARRSLNFGGST [S1H]: 1.56
SNARISLNFGGST [R5I]: 0.399
SNARRSLNFGGSM [T13M]: 1.31
SNARRSLNFGKST [G11K]: 1.64
SNARRPLNFGGST [S6P]: 0.627
SNARRSLNFNGST [G10N]: 0.972
SNARRTLNFGGST [S6T]: 2.88
SNARVSLNFGGST [R5V]: 0.516
SNARRSLNFGYST [G11Y]: 0.895
SNARRSLNFGIST [G11I]: 1.29
SNARRYLNFGGST [S6Y]: 0.727
SNARRSLNQGGST [F9Q]: -0.093
SNARRSLNFGGSI [T13I]: 1.38
SNARRSLNNGGST [F9N]: -0.291
SNARRSLNFAGST [G10A]: 1.43
SNARRSLNFGGSG [T13G]: 1.22
SNARRSLNFGLST [G11L]: 0.984

Study 4
Target: Interferon regulatory factor 5, full length, phosphomimetic (IRF5, Homo sapiens, UniProt Q13568-2, residues 1-514, S451D/S453D/S456D/S462D)
Technique: protein-binding microarray
Form: double-stranded DNA, one strand shown
Matrix: in vitro
Tested at: 940 nM top
Setting: 60-bp whole probe
Added: salmon DNA 0.4 mg/ml
Relative to: random background probes
Reading: higher = stronger binding
Measurement: fitted relative affinity
Constant ends, left off below: GCCTAGCAC … GTCTTGATTCGCTTGACGCTGCTG
GACGATATTAGACTGGAGACGTGCTAG: -0.19 z-score
TTTCCTTCCTCTTTTACCCCGTGCTAG: 2.59 z-score
GACGGACTGGGTTTCGGGATGTGCTAG: 2.59 z-score
GACGGTCTAGGTCTCGGGACGTGCTAG: -0.215 z-score
GACGGTCTCCTTTTCCTGGCGTGCTAG: 1.21 z-score
TTAGGTCTCGGACTGGGATAGTGCTAG: 1.18 z-score
TTAGGTCTCCTTCTTCTTTAGTGCTAG: 0.79 z-score
TTAGATTTCAGACTGCATTAGTGCTAG: -0.0267 z-score
CAAACACTAGTTTTTACTTTGTGCTAG: -0.00165 z-score
TTAGGTCTCCTTATCCTTTCGTGCTAG: 0.497 z-score
GACGGTATGCTTATCCTGACGTGCTAG: -0.382 z-score
GACGGTATTCTTCTCCTGACGTGCTAG: 0.72 z-score
GATGGTATCCTTATCCTGACGTGCTAG: 0.586 z-score
TACTATATGCATGTAAATAAGTGCTAG: 0.192 z-score
TTAGGTATCGCTCTCGGTTAGTGCTAG: 6.17 z-score
TCACTTATTAAGATTGTGACTGTGCTA: 0.14 z-score
TCATTTTTCACTATTGCACTGTGCTAG: 1.92 z-score
TCATTCTCCTATTTAAGACTGTGCTAG: 1.53 z-score
TTAGATTTCGGGTAGCGATTAGTGCTA: 1.12 z-score
CGCTTTCTTTAACTCATTTTGTGCTAG: 1.97 z-score
TTAGGTCTCTGTTTCGGTTAGTGCTAG: 4.95 z-score
GACGGCATCGGGTTTCGGGACGTGCTA: 1.86 z-score
TTAGGACTGATTTTCCTTTAGTGCTAG: -0.28 z-score
TCAATTATTGTTTCCTTACTGTGCTAG: 1.05 z-score
TTAGGTTTCCTTCTCCTTTCGTGCTAG: 2.3 z-score

Excerpt of the above (study 1):
CACAGACAACACGCACCCACACAGACACAGAGGGAAGGGGUUGGGAUGGGGACAGGGUGCACGGCAGGGCGGGGUAGGACCCCAGCCCCU: 1.77
GCAGGAAGUAAAAACAAAUGGAAAUGCUUCGGAUAGAAACAGGGGUGGGGGUUGCUAAGGAAAGGGUGGGAUGGGAGUGGGUAAAGAGUU: 0.935
CACAGACAACACGCACCCAAAAAGACACAGAGGGAAGGGGUUGGGAUGGGGACAGGGUGCACAGCAGGGCGGGGUAGGACCCCAGCCCCU: 1.92
ACCAUGCAGGUGGGCAUCUUUGGGAAGUGGGGCAAGGGGAAAAUAGGGAGGGGGGUAACACUUUGGGAACAGGUGGUCCCAGGUCGUUUC: 0.99
